# Measurements of several laboratories.
# Protocols differ between the studies behind these lines. Numbers after ± are the reported error.
SMILES,tested on,assay,system,setting,scale,measurement,value
Nc1ncnc2c1c(Oc1cc(C(F)(F)F)ccn1)nn2[C@@H]1CCCC[C@H]1O,,,rat liver microsomes,,,metabolic stability,stable
Oc1ccccc1-c1n[nH]cc1-c1ccnc2ccccc12,KIC1 (Candida albicans),"kinase binding, MIB/MS competition",Candida albicans lysate,1 µM,reference: DMSO,log2 fold change,-0.13
O=C(Nc1ccc(OC(F)(F)Cl)cc1)c1cnc(N2CC[C@@H](O)C2)c(-c2ccn[nH]2)c1,,"per patient, item: platelet decrease",human patients,"oral, dose not given",,grade ≥3 event rate,19.9%
CCn1cc(C(=O)N2CCOCC2)c(=O)c2cc(NC3Cc4ccccc4C3)cnc21,,,"human, fed","oral suspension, 1200 mg/day twice daily, day 1, median",,Tmax,3 h
COc1ccnc(C(=O)NCC(=O)O)c1O,,aerobic dark soil incubation,clay soil,"20 °C, persistence endpoint",,DT50,20.8 days
Cc1cccc(CNC(=O)c2cn(CCNC(=O)c3ccccc3Sc3c([N+](=O)[O-])ncn3C)c3cc4c(cc3c2=O)OC(F)(F)O4)n1,,,"Sprague-Dawley rat, male, plasma","intramuscular, 30 mg/kg of parent drug",,bioavailability,24.1 ± 11.3%
CCN1/C(=C/C(C)=O)Sc2ccc(F)cc21,,,cynomolgus monkey,"oral, 30 mg/kg, 24 h post-dose",reference: pre-dose,PR interval change,99.8 ± 2.9%
Cn1cncc1[C@@](N)(c1ccc(Cl)cc1)c1ccc2c(c1)c(-c1cccc(Cl)c1)cc(=O)n2C,,,"healthy human, plasma","intravenous, 25 mg",,Vss,126 L
CCNC(=O)OC1CCN(c2nncc3cc(OC)c(OC)cc23)CC1,,equilibrium dialysis,"Sprague-Dawley rat, plasma",,,fraction unbound,0.169
Cc1ccccc1-c1ccc([C@H]2[C@@H](CO)N3CCCCN(S(=O)(=O)c4cn(C)cn4)C[C@H]23)cc1,"IDE (Homo sapiens, UniProt P14735)","enzyme activity, inhibitor, fluorogenic kinetic",,added: Mca-RPPGFSAFK(Dnp)-OH substrate,,EC50,2.2 µM
CC(=O)/N=S(/c1ccccc1)c1ccc(C)cc1 (stereo not drawn),,,human liver microsomes,,reference: hepatic blood flow,metabolic stability,< 23%
Nc1ncnc2c1ncn2[C@H]1C[C@@H]2OP(=O)(O)OC[C@H]3O[C@@H](n4cnc5c(N)ncnc54)C[C@@H]3OP(=O)(O)OC[C@H]2O1,,,"non-tumor-bearing mice, serum","intravenous, 1 mg/kg, toxicity study",,total protein,51.7 ± 4.66 g/L
Cl.[2H]C([2H])([2H])CC(=O)c1cnc(NC(=O)C2CC2)cc1Nc1cccc(-c2ncn(C([2H])([2H])[2H])n2)c1OC,,median,human,"oral, 20 mg once daily, day 7, fasted, liquid, multiple dose",,Tmax,1.12 h
Cc1cc(NC2CCN(C(=O)OC3CCN(C(=O)/C=C/CN(C)C)C3)CC2)n2ncc(C(C)C)c2n1 (stereo not drawn),,"Phase I dose escalation CTCAE v4.0, item: Diarrhea",patients with advanced solid tumours,"dose not given, all dose schedules any grade",,patients with adverse event,43%
COc1ccn2c(Nc3ccccc3F)c(-c3ccncn3)nc2c1,,,"peritoneal macrophages, Swiss mice","5 days, 5% fetal calf serum",,CC50,50.1 µM
O=C(/C=C/N1C[C@H]2C[C@@H]1CN2c1ccccn1)c1ccccc1O,HBL-1,,,"0.1 µM, 120 h",,viability,47.1%
CCCCC[C@H](O)CC[C@@H]1[C@H]2Cc3cccc(OCC(=O)O)c3C[C@H]2C[C@H]1O,,LC-MS/MS,"Japanese PAH patients ≥56.7 kg, plasma","inhaled, 54 µg",,geometric mean AUC(0-inf),0.89 ng·h/mL
NC(=O)[C@H](CCCN=C(N)CF)NC(=O)c1ccccc1,HBL-1,,,"0.1 µM, 120 h",,viability,134%
CCOc1c([C@H](C)n2nc(C)c3c(N)ncnc32)cc(Cl)c(F)c1[C@@H]1CNC(=O)C1,,,rat plasma,"1600 ng/mL, 4 h, 10 °C, autosampler",reference: nominal concentration,stability relative error,14.7%
N#Cc1ccc2c(c1)[C@H]1CCCN(C(=O)c3ccc4[nH]cnc4c3)[C@H]1C2,,,human,"80 mg, day 7",reference: baseline,ACTH level change,1.9 pmol/L
Cn1cc(-c2ccc(-c3cncc(Cl)c3N3CCC4(CCNC4=O)CC3)cc2)cn1,COLO 205,"gene expression, microarray, item: EMP1 mRNA",,"concentration not given, 2 h",reference: untreated cells,log2 fold change,3.82
N#Cc1ccc2c(c1)[C@H]1CCCN(C(=O)c3ccc4[nH]cnc4c3)[C@H]1C2,,,"human, plasma","oral, 240 mg once daily, day 28",,CL/F at steady state,75.3 mL/min
Cc1ccc([C@@H]2O[C@H](CO)[C@@H](O)[C@H](O)[C@H]2O)cc1Cc1ccc(-c2ccc(F)cc2)s1,,,Japanese type 2 diabetes patients,"200 mg, day 16, 24 h urine collection",reference: baseline,urinary potassium excretion change,2.96 mEq
Cc1c(Cl)c(C)[n+]([O-])c(Cl)c1-c1noc(-c2cc(O)c(O)c([N+](=O)[O-])c2)n1,,item: Belching,healthy Chinese subjects,"oral, 25 mg, 4 days",,adverse drug reaction incidence,6.7%

# Excerpt of the above:
SMILES,tested on,assay,system,setting,scale,measurement,value
Oc1ccccc1-c1n[nH]cc1-c1ccnc2ccccc12,KIC1 (Candida albicans),"kinase binding, MIB/MS competition",Candida albicans lysate,1 µM,reference: DMSO,log2 fold change,-0.13
N#Cc1ccc2c(c1)[C@H]1CCCN(C(=O)c3ccc4[nH]cnc4c3)[C@H]1C2,,,"human, plasma","oral, 240 mg once daily, day 28",,CL/F at steady state,75.3 mL/min
CCCCC[C@H](O)CC[C@@H]1[C@H]2Cc3cccc(OCC(=O)O)c3C[C@H]2C[C@H]1O,,LC-MS/MS,"Japanese PAH patients ≥56.7 kg, plasma","inhaled, 54 µg",,geometric mean AUC(0-inf),0.89 ng·h/mL
